Assay results from different studies.
Protocols differ between the studies behind these lines. ± gives the spread as reported.
EPHA4: Ephrin type-A receptor 4 (EPHA4, Homo sapiens, UniProt P54764)
UniProt P54764, sequence (whole entry, looked up): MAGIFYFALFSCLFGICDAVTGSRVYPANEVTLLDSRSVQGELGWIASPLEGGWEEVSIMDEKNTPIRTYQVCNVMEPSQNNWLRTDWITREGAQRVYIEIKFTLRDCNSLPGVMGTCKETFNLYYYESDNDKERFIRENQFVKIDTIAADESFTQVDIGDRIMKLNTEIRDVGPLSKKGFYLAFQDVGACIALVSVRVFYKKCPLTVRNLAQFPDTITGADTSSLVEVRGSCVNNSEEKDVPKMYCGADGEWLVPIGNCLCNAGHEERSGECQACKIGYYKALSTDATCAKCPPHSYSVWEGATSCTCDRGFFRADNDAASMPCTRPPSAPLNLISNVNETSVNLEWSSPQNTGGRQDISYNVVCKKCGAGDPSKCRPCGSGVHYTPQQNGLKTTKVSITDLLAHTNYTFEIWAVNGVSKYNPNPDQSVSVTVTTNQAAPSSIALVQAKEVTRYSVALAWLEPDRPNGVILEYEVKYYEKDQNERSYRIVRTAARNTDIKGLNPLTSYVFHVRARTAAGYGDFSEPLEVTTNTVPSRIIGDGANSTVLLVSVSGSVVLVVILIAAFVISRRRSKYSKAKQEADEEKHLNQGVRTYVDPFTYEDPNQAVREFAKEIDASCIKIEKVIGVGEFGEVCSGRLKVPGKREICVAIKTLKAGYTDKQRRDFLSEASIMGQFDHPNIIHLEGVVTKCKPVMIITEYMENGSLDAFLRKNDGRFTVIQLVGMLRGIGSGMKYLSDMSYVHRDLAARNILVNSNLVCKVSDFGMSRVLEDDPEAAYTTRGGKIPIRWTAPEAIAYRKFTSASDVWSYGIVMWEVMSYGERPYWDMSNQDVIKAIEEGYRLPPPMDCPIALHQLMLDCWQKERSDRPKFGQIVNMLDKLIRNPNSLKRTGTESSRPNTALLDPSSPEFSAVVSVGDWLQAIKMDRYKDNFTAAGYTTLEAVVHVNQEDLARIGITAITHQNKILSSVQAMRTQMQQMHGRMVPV
UniProt P11712, sequence (whole entry, looked up): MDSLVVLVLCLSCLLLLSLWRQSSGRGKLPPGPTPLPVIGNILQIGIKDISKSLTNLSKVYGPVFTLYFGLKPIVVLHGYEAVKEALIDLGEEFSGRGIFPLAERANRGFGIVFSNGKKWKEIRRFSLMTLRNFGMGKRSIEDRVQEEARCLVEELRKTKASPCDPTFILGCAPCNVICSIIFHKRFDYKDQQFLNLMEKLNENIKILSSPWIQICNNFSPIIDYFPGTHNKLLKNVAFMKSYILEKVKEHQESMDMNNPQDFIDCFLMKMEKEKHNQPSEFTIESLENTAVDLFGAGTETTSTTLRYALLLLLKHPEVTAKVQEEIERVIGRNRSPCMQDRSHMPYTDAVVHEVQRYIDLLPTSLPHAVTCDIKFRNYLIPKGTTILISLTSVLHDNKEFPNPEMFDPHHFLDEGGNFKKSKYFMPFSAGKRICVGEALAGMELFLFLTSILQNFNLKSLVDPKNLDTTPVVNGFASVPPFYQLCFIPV
UniProt P52699, sequence (whole entry, looked up): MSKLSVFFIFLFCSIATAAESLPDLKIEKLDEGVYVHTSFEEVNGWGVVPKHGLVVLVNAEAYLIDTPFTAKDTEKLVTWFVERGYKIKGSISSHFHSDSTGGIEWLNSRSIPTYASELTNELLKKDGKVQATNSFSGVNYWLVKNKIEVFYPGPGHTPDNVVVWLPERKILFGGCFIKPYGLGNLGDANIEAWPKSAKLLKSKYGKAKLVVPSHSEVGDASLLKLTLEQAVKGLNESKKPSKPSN
UniProt Q99436, sequence (whole entry, looked up): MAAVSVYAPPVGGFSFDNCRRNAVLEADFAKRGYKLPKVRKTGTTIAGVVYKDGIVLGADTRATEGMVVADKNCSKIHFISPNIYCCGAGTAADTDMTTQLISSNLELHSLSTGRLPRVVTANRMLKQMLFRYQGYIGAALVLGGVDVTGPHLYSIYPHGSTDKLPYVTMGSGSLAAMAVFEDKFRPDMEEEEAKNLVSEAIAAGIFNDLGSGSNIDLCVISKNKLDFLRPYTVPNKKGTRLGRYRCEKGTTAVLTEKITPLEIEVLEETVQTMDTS
UniProt P47811, sequence (whole entry, looked up): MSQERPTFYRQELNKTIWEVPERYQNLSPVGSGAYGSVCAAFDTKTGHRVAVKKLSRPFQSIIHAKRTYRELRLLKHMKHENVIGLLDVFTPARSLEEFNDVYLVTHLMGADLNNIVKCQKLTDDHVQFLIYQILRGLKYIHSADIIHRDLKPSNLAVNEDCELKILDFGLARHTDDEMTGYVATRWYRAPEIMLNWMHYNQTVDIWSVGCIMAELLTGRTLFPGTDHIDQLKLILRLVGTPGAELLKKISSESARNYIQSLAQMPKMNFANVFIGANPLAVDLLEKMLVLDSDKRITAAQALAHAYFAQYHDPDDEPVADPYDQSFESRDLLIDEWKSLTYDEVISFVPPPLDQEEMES
UniProt P51812, sequence (whole entry, looked up): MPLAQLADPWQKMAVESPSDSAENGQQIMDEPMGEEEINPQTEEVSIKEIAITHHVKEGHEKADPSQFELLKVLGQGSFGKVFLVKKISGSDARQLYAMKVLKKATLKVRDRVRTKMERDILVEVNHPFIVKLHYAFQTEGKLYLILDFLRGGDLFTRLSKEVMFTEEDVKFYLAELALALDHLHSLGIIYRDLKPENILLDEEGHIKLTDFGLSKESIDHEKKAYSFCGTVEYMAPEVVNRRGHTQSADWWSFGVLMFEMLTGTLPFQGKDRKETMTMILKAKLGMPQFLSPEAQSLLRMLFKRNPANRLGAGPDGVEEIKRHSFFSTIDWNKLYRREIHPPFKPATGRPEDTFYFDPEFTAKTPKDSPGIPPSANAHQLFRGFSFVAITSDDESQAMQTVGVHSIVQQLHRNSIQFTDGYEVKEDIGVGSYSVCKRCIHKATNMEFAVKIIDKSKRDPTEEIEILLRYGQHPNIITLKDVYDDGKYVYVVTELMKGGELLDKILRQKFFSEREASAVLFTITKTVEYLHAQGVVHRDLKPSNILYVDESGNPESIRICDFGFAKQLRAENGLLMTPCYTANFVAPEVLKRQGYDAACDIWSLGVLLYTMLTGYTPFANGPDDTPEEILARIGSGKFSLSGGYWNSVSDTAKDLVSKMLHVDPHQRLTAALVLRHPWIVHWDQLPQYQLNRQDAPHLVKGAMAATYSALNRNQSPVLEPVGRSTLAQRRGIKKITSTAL
UniProt P39051, sequence (whole entry, looked up): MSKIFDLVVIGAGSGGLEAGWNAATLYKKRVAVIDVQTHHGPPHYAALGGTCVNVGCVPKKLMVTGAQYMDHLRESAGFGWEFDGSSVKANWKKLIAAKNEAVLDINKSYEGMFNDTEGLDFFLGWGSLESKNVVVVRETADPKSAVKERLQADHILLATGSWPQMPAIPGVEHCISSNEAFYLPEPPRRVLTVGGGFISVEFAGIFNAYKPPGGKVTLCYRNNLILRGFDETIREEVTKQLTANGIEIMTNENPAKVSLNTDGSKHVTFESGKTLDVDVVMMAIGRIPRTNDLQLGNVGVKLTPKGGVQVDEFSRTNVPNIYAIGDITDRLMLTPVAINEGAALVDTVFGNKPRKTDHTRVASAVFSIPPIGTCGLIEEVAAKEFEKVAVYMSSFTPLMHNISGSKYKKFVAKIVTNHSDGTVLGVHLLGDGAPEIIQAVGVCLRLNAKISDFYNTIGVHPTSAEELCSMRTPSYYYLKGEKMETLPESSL
UniProt P30989, sequence (whole entry, looked up): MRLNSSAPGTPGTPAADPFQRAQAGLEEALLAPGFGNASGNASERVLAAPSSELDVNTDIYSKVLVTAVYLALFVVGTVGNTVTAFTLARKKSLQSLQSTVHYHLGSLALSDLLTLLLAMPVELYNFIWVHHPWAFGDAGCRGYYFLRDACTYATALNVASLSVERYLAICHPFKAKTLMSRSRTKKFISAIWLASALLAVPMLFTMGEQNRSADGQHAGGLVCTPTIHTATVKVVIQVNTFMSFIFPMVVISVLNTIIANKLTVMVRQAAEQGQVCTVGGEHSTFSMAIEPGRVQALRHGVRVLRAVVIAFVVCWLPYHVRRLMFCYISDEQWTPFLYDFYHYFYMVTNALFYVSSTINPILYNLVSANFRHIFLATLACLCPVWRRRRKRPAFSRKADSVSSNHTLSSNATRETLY
UniProt P22455, sequence (whole entry, looked up): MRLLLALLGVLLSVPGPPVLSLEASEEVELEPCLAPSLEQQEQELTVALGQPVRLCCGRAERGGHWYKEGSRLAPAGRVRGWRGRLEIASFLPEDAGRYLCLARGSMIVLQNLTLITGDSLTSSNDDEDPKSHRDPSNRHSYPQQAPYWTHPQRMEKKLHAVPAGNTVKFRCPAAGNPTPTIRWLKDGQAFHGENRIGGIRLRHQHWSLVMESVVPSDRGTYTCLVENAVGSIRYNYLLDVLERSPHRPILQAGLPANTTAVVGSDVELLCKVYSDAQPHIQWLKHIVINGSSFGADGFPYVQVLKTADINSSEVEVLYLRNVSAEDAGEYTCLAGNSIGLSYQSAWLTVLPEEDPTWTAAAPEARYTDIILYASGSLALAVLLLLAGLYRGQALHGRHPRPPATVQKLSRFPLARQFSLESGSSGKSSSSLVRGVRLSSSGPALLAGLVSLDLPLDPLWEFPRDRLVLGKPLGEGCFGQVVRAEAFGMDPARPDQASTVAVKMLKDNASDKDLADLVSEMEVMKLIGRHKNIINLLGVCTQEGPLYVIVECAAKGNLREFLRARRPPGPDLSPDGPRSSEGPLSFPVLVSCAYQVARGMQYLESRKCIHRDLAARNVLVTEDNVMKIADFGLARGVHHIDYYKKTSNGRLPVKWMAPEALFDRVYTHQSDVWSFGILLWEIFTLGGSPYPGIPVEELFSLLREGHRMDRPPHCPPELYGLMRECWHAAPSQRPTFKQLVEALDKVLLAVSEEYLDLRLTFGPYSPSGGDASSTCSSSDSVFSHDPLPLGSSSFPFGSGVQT

SMILES	target	assay	system	conditions	IC50
NS(=O)(=O)c1ccc(-n2cc(CNc3ccc(Cl)cc3)c(-c3ccc(OCc4ccccc4)cc3)n2)cc1	PTGS1 (Homo sapiens, UniProt P23219)	enzyme activity, inhibitor, absorbance	–	–	193 µM
CNC(=O)C1CCN(c2ccccc2NC(=O)c2ccc(-c3ccccc3C)c(C)c2)CC1	EPHA4	target engagement in cells, BRET	–	–	3.86 µM
C=C(C)C(=O)Nc1ccc(-c2c(C#Cc3cc(OC)cc(OC)c3)c3c(N)ncnc3n2C)cc1	FGFR2 (Homo sapiens, UniProt P21802)	Caliper mobility shift	–	30 min preincubation, together with: 100 µM ATP	0.037 µM
CC(=O)NCCN(CC(=O)NCCN(CC(=O)NCCN(CC(=O)NCCC(N)=O)C(=O)[C@@H](N)CCCNC(=N)N)C(=O)[C@@H](N)CCCCN)C(=O)[C@@H](N)Cc1ccccc1	HIV-1 TAR RNA	Tat/TAR complex displacement, FRET	–	room temperature, together with: 10 nM Tat/TAR complex	12.1 ± 0.8 µM
COc1ccc(-c2cc(/C=C3/SC(=S)NC3=O)no2)cc1	CD38 (Homo sapiens, UniProt P28907)	enzyme activity, inhibitor, fluorescence	–	–	3.71 µM
CCCn1cnc(C[C@H](NC(=O)c2cnc(C)cn2)C(=O)N2CCC[C@H]2C(N)=O)c1	Thyrotropin-releasing hormone receptor (Mus musculus, UniProt P21761)	ligand displacement, radioligand	–	–	> 50 µM
C[C@@H](c1ccn(Cc2ccc(OC(F)(F)F)cc2)n1)[C@](O)(Cn1cnnn1)c1ccc(F)cc1F	Cytochrome P450 2C9 (CYP2C9, Homo sapiens, UniProt P11712)	enzyme activity, inhibitor	human, liver microsomes	–	4.08 µM
CCN(c1nc(NCC(=O)O)nc(N2CCN(c3ccccc3OC)CC2)n1)C1CCCCC1	Slit homolog 2 protein, with SLIT2 (SLIT2, Homo sapiens, UniProt O94813)	inhibitor, TR-FRET	–	–	239 µM
CNC(=O)C1CCN(c2ccccc2NC(=O)c2ccc(-c3cc(O)ccc3C)cc2)CC1	EPHA4	target engagement in cells, BRET	–	–	0.0648 µM
CC(C)NCc1ccc(C[C@@H]2NC(=O)[C@@H](Cc3c[nH]c4ccccc34)NC(=O)[C@H](Cc3ccccc3)NC(=O)[C@@H](N)CSSC[C@@H](C(=O)N[C@H](C(N)=O)[C@@H](C)O)NC(=O)[C@H](Cc3ccc(O)c(I)c3)NC2=O)cc1	SSTR3 (Homo sapiens, UniProt P32745)	ligand displacement, radioligand	–	cell membranes	0.989 µM
Cc1cc(O)c2c(c1)C(=O)c1cc3oc(=O)cc(-c4ccc(Cl)cc4)c3c(O)c1C2=O	mushroom tyrosinase	enzyme activity	–	together with: L-DOPA	> 100 µg/mL
O=C1Nc2ccc(-c3ccc(C(=O)N4CCCCC4)cc3)cc2/C1=C/c1ccc(N2CCNCC2)cc1	FGFR4 (Homo sapiens, UniProt P22455)	enzyme activity, inhibitor	–	–	26.8 µM
Cc1cc2oc(-c3cc(-c4cnn(C5CCNCC5)c4)cnc3N)nc2cc1O	JAK2 (Homo sapiens, UniProt O60674)	enzyme activity, inhibitor, TR-FRET	–	–	0.22 µM
CN(C)c1ccc2c(c1)C(=O)N(CCS)C2=O	Metallo-beta-lactamase type 2 (Serratia marcescens, UniProt P52699)	enzyme activity, inhibitor	–	pH 7.0, together with: chromacef 25 µM	0.47 ± 0.04 µM
Cc1[nH]nc(-c2nc3ccccc3[nH]2)c1C(=O)NC1CCNCC1	PDPK1 (Homo sapiens, UniProt O15530)	enzyme activity, inhibitor	–	–	0.09 µM
O=C1Nc2ccc(Cl)cc2C1=Cc1ccc(-c2cccc(C(=O)NCC3CCNCC3)c2)o1 (mixture of isomers)	CSNK2A1 (Homo sapiens, UniProt P68400)	enzyme activity, inhibitor	–	–	1.43 µM
N#C/C(=C\c1cc(Cn2cncn2)cs1)C(N)=O	Ribosomal protein S6 kinase alpha-3, C-terminal kinase domain (RPS6KA3, Homo sapiens, UniProt P51812)	enzyme activity, inhibitor	–	10 mM reduced glutathione, together with: 0.1 mM ATP, peptide substrate	50.4 µM
CC(=O)NCCN(CCC(=O)NCCN(CCC(=O)NCCN(CCC(=O)NCCC(N)=O)C(=O)[C@@H](N)Cc1ccccc1)C(=O)[C@@H](N)CCCNC(=N)N)C(=O)[C@@H](N)Cc1ccccc1	HIV-1 TAR RNA	Tat/TAR complex displacement, FRET	–	room temperature, together with: 10 nM Tat/TAR complex	74 ± 0.5 µM
O=C(c1ccc(Br)c([N+](=O)[O-])c1)N1CCN(c2ccccc2F)CC1	SEC14 (Saccharomyces cerevisiae, UniProt P24280)	enzyme activity, inhibitor, radiometric	–	–	0.1 µM
CCCCn1nc(-c2cc(Br)ccc2F)nc2c(=O)n(C)c(=O)nc1-2	TPR (Trypanosoma brucei brucei, UniProt P39051)	inhibitor, DTNB-coupled colourimetric	–	together with: substrate at Km	> 100 µM
C=CCc1ccc(O)c(-c2cc(CC=C)ccc2OCCCC[P+](c2ccccc2)(c2ccccc2)c2ccccc2)c1	mitochondrial complex I (human)	oxygen consumption, inhibitor	UACC-62 (permeabilized)	24 h	2.4 µM
C=C(NC(=O)C(=C)NC(=O)c1csc(C2=NC3c4csc(n4)C4NC(=O)c5csc(n5)C(C(C)(O)C(C)O)NC(=O)C5CSC(=N5)C(=CC)NC(=O)C(C(C)O)NC(=O)c5csc(n5)C3(CC2)NC(=O)C(Cc2ccccc2)NC(=O)C(=C)NC(=O)C(C)NC(=O)C(C(C)CC)NC2C=Cc3c(C(C)O)cc(nc3C2O)C(=O)OC4C)n1)C(N)=O (centres unmarked)	Proteasome subunit beta type-7, in 20S proteasome (PSMB7, Homo sapiens, UniProt Q99436)	trypsin-like activity, inhibitor	purified 20S proteasome	15 min preincubation, 37 °C, together with: Boc-Leu-Arg-Arg-AMC substrate	0.24 ± 0.03 µM
CC1CC(Nc2ncnc3nc[nH]c23)CC(C)(C)C1 (centres unmarked)	Sensor histidine protein kinase/phosphatase WalK (walK, Streptococcus pneumoniae, UniProt Q8DPL8)	enzyme activity, ATP-competitive inhibitor	–	–	367 µM
COc1cc2ncnc(Nc3ccc(Oc4ccccc4)c(C)c3C)c2cc1OC	RAF1 (Homo sapiens, UniProt P04049, Y340D/Y341D)	inhibitor, ATP-biotin probe competition	–	–	> 10 µM
CC(C)C[C@H](NC(=O)[C@H](CC(N)=O)NC(=O)[C@H](CC(C)C)NC(=O)[C@@H](NC(=O)[C@@H](NC(=O)[C@@H]1CCCN1C(=O)[C@H](CCCNC(=N)N)NC(=O)[C@H](CCCCN)NC(=O)[C@@H]1CCCN1C(=O)[C@H](CCCNC(=N)N)NC(=O)[C@@H]1CCCN1C(=O)[C@@H]1CCCN1C(=O)[C@H](CCCNC(=N)N)NC(=O)[C@H](CCCNC(=N)N)NC(=O)[C@H](CCCNC(=N)N)NC(=O)[C@H](CCC(N)=O)NC(=O)[C@H](CCCNC(=N)N)NC(=O)[C@H](CCCNC(=N)N)NC(=O)[C@H](CCCCN)NC(=O)[C@H](CCCCN)NC(=O)[C@H](CCCNC(=N)N)NC(=O)CN)[C@@H](C)O)[C@@H](C)O)C(=O)N[C@@H](Cc1ccccc1)C(=O)N1CCC[C@H]1C(=O)N[C@@H](CCC(N)=O)C(=O)N[C@H](C(=O)N1CCC[C@H]1C(=O)N[C@@H](CCCNC(=N)N)C(=O)N[C@@H](CO)C(=O)N[C@@H](CCC(N)=O)C(=O)N[C@@H](CC(=O)O)C(=O)N[C@H](C(N)=O)[C@@H](C)O)C(C)C	Mapk14 (Mus musculus, UniProt P47811)	inhibitor	–	–	1.45 ± 0.1 µM
COc1cc(F)cc(-c2nc3ccc(C(=O)NCCCN(C)C)cc3n2C2CCC2)c1	ACVR1 (Homo sapiens, UniProt Q04771, R206H)	binding, NanoBRET	HEK293	–	13.4 µM
Cc1ccccc1/C=C/C(=O)C(c1ccccc1)c1ccccc1	Seed linoleate 13S-lipoxygenase-1 (Glycine max, UniProt P08170)	enzyme activity, inhibitor, absorbance	–	–	95.2 µM
CC(=O)N[C@H]1[C@@H](OC(=O)NCCCOCCOCCOCCCNC(=O)O[C@H]2O[C@H](CNC(=O)OCCOCCOCCOCCOCCOCCOC(=O)NC[C@H]3O[C@H](OC(=O)NCCCOCCOCCOCCCNC(=O)O[C@H]4O[C@H](CO)[C@@H](O)[C@H](O)[C@H]4NC(C)=O)[C@H](NC(C)=O)[C@@H](O)[C@@H]3O)[C@@H](O)[C@H](O)[C@H]2NC(C)=O)O[C@H](CO)[C@@H](O)[C@@H]1O	wheat germ agglutinin (Triticum vulgaris)	binding to immobilised GlcNAc, inhibitor, enzyme-linked lectin	–	together with: HRP-labelled WGA	0.056 µM
Cc1cc(O)cc(C)c1C[C@H](NC(=O)[C@@H]1CCCN1C(=O)[C@H](CCCNC(=N)N)NC(=O)[C@H](CCCNC(=N)N)N(C)C(=O)[C@@H]1CCCN1C(=O)[C@H](CCCCN)NC(=O)CN1CCN(CC(=O)O)CCN(CC(=O)O)CCN(CC(=O)O)CC1)C(=O)N[C@H](C(=O)N[C@@H](CC(C)C)C(=O)O)C(C)(C)C	NTSR1 (Homo sapiens, UniProt P30989)	ligand displacement, radioligand	–	–	0.0472 µM

Excerpt of the above:
SMILES	target	assay	system	conditions	IC50
COc1ccc(-c2cc(/C=C3/SC(=S)NC3=O)no2)cc1	CD38 (Homo sapiens, UniProt P28907)	enzyme activity, inhibitor, fluorescence	–	–	3.71 µM
